Published values of several laboratories.
Each numbered part is a random draw from the data of one study; scales do not carry over between parts. Changes are numbered by the printed parent chain.

Block 1
Target: Prothrombin, mature alpha-thrombin (F2, Homo sapiens, UniProt P00734)
Technique: aptamer microarray, sandwich
Molecule type: DNA with 2'F-ANA
Medium: in vitro
Tested at: 200 nM
Notes: whole 15-mer aptamer, many near background
Together with: Cy3 exosite-II aptamer, 400 nM
Reading: higher = stronger binding
Strand: GGTTGGTGTGGTTGG
Under “mean fluorescence intensity”, `2'F-ANA at 1 3 4 13 14 15` is recorded as 61.5 a.u.
For `2'F-ANA at 1 2 6 7 10 13 14 15`, “mean fluorescence intensity” read 50.6 a.u.
`2'F-ANA at 2 3 5 6 7 9 12 13 14` — result for “mean fluorescence intensity”: 51.7 a.u.
For `2'F-ANA at 2 3 5 8 9 10 12 13 15`, “mean fluorescence intensity” read 60.2 a.u.
Under “mean fluorescence intensity”, `2'F-ANA at 1 7 8 11 12 13 14 15` is recorded as 75.5 a.u.
Under “mean fluorescence intensity”, `2'F-ANA at 1 5 7 8 10 11 13 14 15` is recorded as 52.8 a.u.
For `2'F-ANA at 3 7 9 10 11 13 14 15`, “mean fluorescence intensity” read 339 a.u.
`2'F-ANA at 1 2 4 6 8 10 11 13 14 15`: “mean fluorescence intensity” 60.1 a.u.
Under “mean fluorescence intensity”, `2'F-ANA at 1 3 6 10 11 13 15` is recorded as 72.3 a.u.
For `2'F-ANA at 1 2 9 10 13 14 15`, “mean fluorescence intensity” read 46 a.u.
For `2'F-ANA at 1 3 4 6 8 12 15`, “mean fluorescence intensity” read 432 a.u.
`2'F-ANA at 1 4 7 15` — result for “mean fluorescence intensity”: 139 a.u.
Under “mean fluorescence intensity”, `2'F-ANA at 1 2 3 4 5 7 8 12 14` is recorded as 49.7 a.u.
Under “mean fluorescence intensity”, `2'F-ANA at 2 3 6 8 9 11 13` is recorded as 559 a.u.
`2'F-ANA at 2 4 5 6 7 8 12 14`: “mean fluorescence intensity” 51 a.u.
`2'F-ANA at 1 2 3 9 10 12 13 14` — result for “mean fluorescence intensity”: 54.4 a.u.
`2'F-ANA at 1 3 6 9 10 11 12 14 15` — result for “mean fluorescence intensity”: 81.5 a.u.
Under “mean fluorescence intensity”, `2'F-ANA at 4 6 8 10 11 12 13` is recorded as 110 a.u.
`2'F-ANA at 3 4 5 7 8 11 13 14 15` — result for “mean fluorescence intensity”: 53.7 a.u.
`2'F-ANA at 2 5 6 9 10 12` — result for “mean fluorescence intensity”: 52.3 a.u.
Under “mean fluorescence intensity”, `2'F-ANA at 2 3 7 8 11 12 13 15` is recorded as 866 a.u.
`2'F-ANA at 1 2 4 6 8 9 14`: “mean fluorescence intensity” 107 a.u.
`2'F-ANA at 1 4 5 7 8 9 10 13 14` — result for “mean fluorescence intensity”: 49.3 a.u.
For `2'F-ANA at 1 3 8 9 10 11 12 13 14`, “mean fluorescence intensity” read 60.9 a.u.
Under “mean fluorescence intensity”, `2'F-ANA at 3 5 6 7 12 13 15` is recorded as 160 a.u.

Block 2
Target: Centromere-binding protein 1, full length, N-terminal tag (CBF1, Saccharomyces cerevisiae, UniProt P17106, residues 1-351)
UniProt P17106, sequence (whole entry, looked up): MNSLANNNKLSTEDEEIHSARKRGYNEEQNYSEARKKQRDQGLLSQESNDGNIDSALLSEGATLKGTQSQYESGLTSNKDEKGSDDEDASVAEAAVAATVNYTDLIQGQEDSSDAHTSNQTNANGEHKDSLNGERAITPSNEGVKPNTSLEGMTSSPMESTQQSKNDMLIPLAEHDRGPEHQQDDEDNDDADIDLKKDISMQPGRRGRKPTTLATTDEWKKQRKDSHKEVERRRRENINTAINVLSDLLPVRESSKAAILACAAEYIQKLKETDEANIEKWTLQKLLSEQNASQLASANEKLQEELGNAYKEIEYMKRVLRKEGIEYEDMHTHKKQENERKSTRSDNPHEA
Technique: protein-binding microarray
Molecule type: double-stranded DNA, one strand shown
Medium: in vitro
Tested at: 0.8 µM
Notes: whole 60-bp probe, no competitor
Reading: higher = stronger binding
With `GAATGGCGTATGGGCGACGTGCGTCCATGCAAATAGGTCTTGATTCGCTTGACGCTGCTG` the fluorescence intensity was 523 a.u.
`GAACATGCGTTTGATCATCTGACCTTTATGATTTAGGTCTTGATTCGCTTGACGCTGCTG` has a fluorescence intensity of 2760 a.u.
`CCTAACTACTATAATCAACTCACATAGCTTCGTACAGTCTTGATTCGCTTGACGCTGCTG` gave a fluorescence intensity of 509 a.u.
`GAACGTTCTCTTTGTCACCCGCTTGATGTAAAATAGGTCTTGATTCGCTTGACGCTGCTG` has a fluorescence intensity of 554 a.u.
The fluorescence intensity of `CTATCGTCGATGGCCATCATGATTGCCCTTTTTTTCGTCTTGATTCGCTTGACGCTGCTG` is reported as 488 a.u.
The fluorescence intensity of `CCTAACTACTATAGTGGTCAGACATAGCTTCGTACAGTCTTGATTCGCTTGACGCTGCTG` is reported as 509 a.u.
For `CCTAACTACTATAGAAACGGTCAATAGCTTCGTACAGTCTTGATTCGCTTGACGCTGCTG`, the fluorescence intensity was 528 a.u.
For `CTAGTCGACATGGATGACGAAGAATGGAGATCTTTCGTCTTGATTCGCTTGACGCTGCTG`, the fluorescence intensity was 508 a.u.
With `GAACAAACTTCTGGTCACATGAGTTGAACAGAATAGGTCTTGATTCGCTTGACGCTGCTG` the fluorescence intensity was 3230 a.u.
`CTACTTTGATCTGCTGATGTAGCAATGTTTTTTTTCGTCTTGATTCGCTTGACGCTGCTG` gave a fluorescence intensity of 644 a.u.
`GAATCTACGGAAGCCCACCAGATAAGCGCCTTTTAGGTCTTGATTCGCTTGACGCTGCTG` has a fluorescence intensity of 496 a.u.
`GAAACCACTTTGGTTACCGTGACATCCTGCGAATAGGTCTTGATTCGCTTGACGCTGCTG` has a fluorescence intensity of 606 a.u.
For `GAATCGCGTCTTTCGCACGTTGAATCAGAACGATAGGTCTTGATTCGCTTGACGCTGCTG`, the fluorescence intensity was 565 a.u.
`CCTAACTACTATAGTTACGTGGTATAGCTTCGTACAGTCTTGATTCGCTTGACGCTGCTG` gave a fluorescence intensity of 503 a.u.
The fluorescence intensity of `GAATCTGTGGCCACCCATCTCCTGTATATAAGATAGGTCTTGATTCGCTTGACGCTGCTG` is reported as 509 a.u.
For `GAAACTCGCAGTGATCACGGTTTGCTGCGTGTGTAGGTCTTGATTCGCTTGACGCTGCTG`, the fluorescence intensity was 767 a.u.
`CTACAAACTACAGCGCACGTGACCGATAACTATTTCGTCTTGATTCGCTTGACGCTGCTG` has a fluorescence intensity of 24500 a.u.
The fluorescence intensity of `CTATACAAAATGGGTCAACTGATCATAACTATTTTCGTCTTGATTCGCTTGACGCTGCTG` is reported as 651 a.u.
With `CCTAACTACTATAAAAAGCACGTATAGCTTCGTACAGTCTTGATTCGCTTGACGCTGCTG` the fluorescence intensity was 524 a.u.
The fluorescence intensity of `CTAGATATCATCATTCACGAGATCCATCTCGTGTTCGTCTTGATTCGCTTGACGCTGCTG` is reported as 943 a.u.
With `GAATGTCGATTGATAAACGTGATTTTGATGGCCTAGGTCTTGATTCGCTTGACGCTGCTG` the fluorescence intensity was 964 a.u.
`GAAAGAACAGACCATCAGCTTCTGTCACCCTAGTAGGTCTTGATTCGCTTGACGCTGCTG` gave a fluorescence intensity of 477 a.u.
The fluorescence intensity of `CTAGTATTGACTAACTTCATGACACAACCACTGTTCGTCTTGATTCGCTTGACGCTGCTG` is reported as 538 a.u.
`GAAGGTTGTTTTACGAACATGTGATTCGGAAATTAGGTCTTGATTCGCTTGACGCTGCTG` gave a fluorescence intensity of 6390 a.u.

Block 3
Target: Interferon regulatory factor 5, full length, phosphomimetic (IRF5, Homo sapiens, UniProt Q13568-2, residues 1-514, K96S/S451D/S453D/S456D/S462D)
Technique: protein-binding microarray
Molecule type: double-stranded DNA, one strand shown
Medium: in vitro
Tested at: 250 nM
Notes: 60-bp whole probe
Together with: salmon DNA 0.4 mg/ml
Relative to: random background probes
Reading: higher = stronger binding
Constant ends, left off below: GCCTAGCAC … GTCTTGATTCGCTTGACGCTGCTG
For `GACGGTTTCGGGTTTCGGAACGTGCTA`, the log fluorescence was 8.2 z-score.
`TCACTTTCAGTTCTCCCACTGTGCTAG` has a log fluorescence of 8.3 z-score.
With `TCATTTCTTTAACTCATACTGTGCTAG` the log fluorescence was 0.971 z-score.
For `TAAGATTTCGGGTATCGATTAGTGCTA`, the log fluorescence was 6.7 z-score.
`GCCGGACTGGACTTTCGGGACGTGCTA` has a log fluorescence of 4.29 z-score.
`GACGGTCTCCTTTTCGTGACGTGCTAG` gave a log fluorescence of 0.107 z-score.
`GACGATATCGGGACAGGAGACGTGCTA` has a log fluorescence of 1.09 z-score.
`TTAGGTTCCCTTTTCCTTTGGTGCTAG` gave a log fluorescence of 0.305 z-score.
With `GACGGACTGTACACTGGGGACGTGCTA` the log fluorescence was -0.631 z-score.
With `TTAGGTTTCCTTATTCTTTAGTGCTAG` the log fluorescence was 1.07 z-score.
`GACGGTTTCGACTAACGGGACGTGCTA` has a log fluorescence of 6.95 z-score.
For `GAGTGGTTCTGCTTCTTAGCGTGCTAG`, the log fluorescence was -0.452 z-score.
With `GACGGTCTCGGTATCAGGACGTGCTAG` the log fluorescence was 0.475 z-score.
`TCAAGGCTGGTCTCTAACACTGTGCTA` gave a log fluorescence of -0.601 z-score.
For `AACGATTTCGGGTATCGAGACGTGCTA`, the log fluorescence was 5.1 z-score.
`GACGATATAAGTCTCGAGACGTGCTAG` has a log fluorescence of 0.595 z-score.
For `TTAGATATCGGATATCGATTAGTGCTA`, the log fluorescence was 3.43 z-score.
`GACGATATCGGGTTTCAAGACGTGCTA` has a log fluorescence of 2.11 z-score.
With `GACGATATCGGGAATCGAGACGTGCTA` the log fluorescence was 1.25 z-score.
For `GCAAAAATGATTGGTTGAACGTGCTAG`, the log fluorescence was 0.371 z-score.

Block 4
Target: CCNA1, cyclin fold, Cln2 fusion (human)
Technique: yeast growth competition, sequencing
Medium: yeast
Notes: weak parent motif
Relative to: not given
Reading: higher = stronger binding
Starting sequence: HASPIN docking peptide (human); ASLRSVLFGLMNS; partner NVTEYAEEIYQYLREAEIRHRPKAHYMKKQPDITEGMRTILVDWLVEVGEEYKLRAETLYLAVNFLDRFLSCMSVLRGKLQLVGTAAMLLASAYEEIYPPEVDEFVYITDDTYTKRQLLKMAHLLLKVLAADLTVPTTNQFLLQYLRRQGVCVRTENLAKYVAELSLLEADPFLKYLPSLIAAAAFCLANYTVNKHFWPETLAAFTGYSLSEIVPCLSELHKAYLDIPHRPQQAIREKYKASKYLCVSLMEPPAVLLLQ
`ASLRSALFGLMNS [V6A]` — result for “normalised enrichment score”: -0.226.
For `ASLRAVLFGLMNS [S5A]`, “normalised enrichment score” read -0.451.
Under “normalised enrichment score”, `ASLRSVLAGLMNS [F8A]` is recorded as -0.563.
`ASLRSVLFGLMAS [N12A]` — result for “normalised enrichment score”: -0.178.
`ASLRSVAFGLMNS [L7A]` — result for “normalised enrichment score”: 0.357.
`ASLASVLFGLMNS [R4A]` — result for “normalised enrichment score”: -0.944.

Repeated from above (block 3):
`GACGGTCTCCTTTTCGTGACGTGCTAG` gave a log fluorescence of 0.107 z-score.
`GACGATATCGGGACAGGAGACGTGCTA` has a log fluorescence of 1.09 z-score.
`TTAGGTTCCCTTTTCCTTTGGTGCTAG` gave a log fluorescence of 0.305 z-score.
With `GACGGACTGTACACTGGGGACGTGCTA` the log fluorescence was -0.631 z-score.
With `TTAGGTTTCCTTATTCTTTAGTGCTAG` the log fluorescence was 1.07 z-score.
`GACGGTTTCGACTAACGGGACGTGCTA` has a log fluorescence of 6.95 z-score.
For `GAGTGGTTCTGCTTCTTAGCGTGCTAG`, the log fluorescence was -0.452 z-score.
With `GACGGTCTCGGTATCAGGACGTGCTAG` the log fluorescence was 0.475 z-score.
`TCAAGGCTGGTCTCTAACACTGTGCTA` gave a log fluorescence of -0.601 z-score.
For `AACGATTTCGGGTATCGAGACGTGCTA`, the log fluorescence was 5.1 z-score.
`GACGATATAAGTCTCGAGACGTGCTAG` has a log fluorescence of 0.595 z-score.
For `TTAGATATCGGATATCGATTAGTGCTA`, the log fluorescence was 3.43 z-score.
